# Published values pooled from the literature.
# Lines come from different studies, so protocols differ. Several values in a cell are separate wells, animals, samples, runs or records. Numbers after ± are the reported error.
SMILES,target,assay,system,setting,how to read,endpoint,result
Cc1ccc(CNC(=O)Cn2cc(CSc3nc4ccccc4[nH]3)nn2)cc1,tubulin,"tubulin polymerization, inhibitor",MDA-MB-231,"50, 100, 500 ppm",,geometric mean inhibition,23.7%
O=S(=O)(NCCNC/C=C/c1ccc(Br)cc1)c1cccc2cnccc12,PKA,inhibitor,mouse zygotes,"20 µM, Post hCG injection, 96 h, early embryonic development",,embryos at morula stage,55% and 47.1%
COc1cc(-c2cc(-c3ccc(N4CCNCC4)cc3)cnc2C)cc(OC)c1OC,human CK1,"enzyme activity, inhibitor",,0.1 µM,,inhibition,2%
[Ca+2],human TRPA1,"ion current, two-electrode voltage clamp",Xenopus oocytes,"-80 mV, added: AITC",,desensitization time constant,6.46 s and 8.17 s and 2.97 s and 8.33 s and 34.8 s
CCCc1cc(C)[nH]c(=O)c1CNC(=O)c1cc(-c2ccc(N3CCN(C(C)C)CC3)nc2)cc2c1cnn2C(C)C,"15 other methyltransferases (lysine, arginine, DNA)","enzyme activity, inhibitor",,,,IC50,> 100 µM
CNCc1ccc(-c2cc(-c3nc(-c4ccc(S(=O)(=O)C(C)C)cc4)cnc3N)on2)cc1,CK1 (yeast),inhibitor,,"2 µM, added: ATP at Km",,inhibition,8%
O=C(NOCC(O)CO)c1cc(Br)c(F)c(F)c1Nc1ccc(I)cc1F (stereo not drawn),IDO1,kynurenine production,A-431,"1 µM, added: IFN-gamma",,inhibition,84.1%
CCc1oc2c([C@H](CO)N(CC)CC)cccc2c1C,"S1P receptors, human","agonist, NanoBiT G-protein dissociation",,concentration not given,,activity,no effect
CN(C)c1ccc2nc3ccc(=[N+](C)C)cc-3sc2c1,GABAA receptor human,GABA-evoked current,HEK293,300 µM,baseline: control,residual current at end of application,10 to 30%
CC1CCCN(C(=O)c2cc3ncccn3n2)C1 (stereo not drawn),human THEMIS domain,"binding, affinity selection mass spectrometry",,,baseline: other proteins in batch,fold enrichment,0.781
C[C@H](CS)C(=O)N1C[C@@H](Sc2ccccc2)C[C@H]1C(=O)O,aminopeptidase W (pig),"enzyme activity, inhibitor",,,,IC50,7 µM
O=C(NN=Cc1ccc(C[n+]2ccccc2)cc1)c1ccc2ccc3ccc(C(=O)NN=Cc4ccc(C[n+]5ccccc5)cc4)nc3c2n1.[Br-].[Br-],22CTA telomeric G4-DNA antiparallel,FRET melting,,"1 µM, K10 buffer, DNA 0.2 µM",,ΔTm,34.8 ± 0.8 °C
CC(Nc1nc(N2CCCC2)nc2ccccc12)c1ccccc1 (stereo not drawn),transportin-1/2,"FUS nuclear import, high content imaging",HeLa Kyoto reporter,"0.158 µM, 2 h",,cells with nuclear reporter,93.5%
C[n+]1cccc2cc(C=NNC(=O)c3ccc4ccc5ccc(C(=O)NN=Cc6ccc7c(ccc[n+]7C)c6)nc5c4n3)ccc21.[I-].[I-],22CTA telomeric G4-DNA antiparallel,FRET melting,,"1 µM, K10 buffer, DNA 0.2 µM",,ΔTm,27.9 ± 0.1 °C
c1coc(-c2n[nH]cc2-c2ccnc3ccccc23)c1,SKY1 (Candida albicans),"kinase binding, MIB/MS competition",Candida albicans lysate,10 µM,baseline: DMSO,log2 fold change,0.02
C=CC[C@@]1(C)C(=O)[C@H](C)[C@@H](O)[C@@H](C)CCC/C(CO)=C\C[C@@H](/C(C)=C/c2csc(C)n2)OC(=O)C[C@@H]1O,tubulin,"tubulin assembly, stimulator",cell-free,,,EC50,1.3 ± 0.07 µM
CCCCC[S+]([O-])c1n[nH]c(N)n1 (stereo not drawn),human THEMIS domain,"binding, affinity selection mass spectrometry",,,baseline: other proteins in batch,fold enrichment,1.02
CCS(=O)(=O)c1nc(C2CC2)cc(C(F)(F)F)n1,transportin-1/2,"FUS nuclear import, high content imaging",HeLa Kyoto reporter,"0.0158 µM, 2 h",,cells with nuclear reporter,95.5% and 96.1%
CN(C(=O)n1cnc(-c2ccc[n+]([O-])c2)c1)C1CCCCC1,dopamine transporter,,,concentration not given,,inhibition,-11.6%
C=CCNC1=C2C[C@@H](C)C[C@H](OC)[C@H](O)[C@@H](C)/C=C(\C)[C@H](OC(N)=O)[C@@H](OC)/C=C\C=C(/C)C(=O)NC(=CC1=O)C2=O,MyBP-C,,MYBPC3 iPSC-derived cardiomyocytes (human),"concentration not given, fresh powder retest",,activity,inactive
Cc1cc(N(C)C)cc2oc(C(=O)NS(=O)(=O)c3ccccc3-c3ccccc3)cc12,"estrogen receptor alpha, human",reporter gene,MCF7-MVLN,24 h,,IC50,> 20 µM
O=C(O)[C@@H]1CCCN1c1ncnc2[nH]cnc12 (racemic),human THEMIS domain,"binding, affinity selection mass spectrometry",,,baseline: other proteins in batch,log fold enrichment,-0.0605
O=C(NS(=O)(=O)c1ccccc1-c1ccccc1)c1cc2ccc(C(F)F)cc2o1,"estrogen receptor alpha, human",reporter gene,MCF7-MVLN,24 h,,IC50,> 20 µM
COc1cnc(Nc2cccc(S(N)(=O)=O)c2)nc1N1CCN(c2ccccc2)C(=O)C1,human FLT3 ITD/F691L,"binding, KINOMEscan",,1000 nM,lower = stronger binding,percent of control,54%
CCCCCCCC(=O)OC[C@H](COP(=O)(O)O[C@@H]1[C@H](O)[C@H](O)[C@@H](OP(=O)(O)O)[C@H](OP(=O)(O)O)[C@H]1O)OC(=O)CCCCCCC,Kv7.2/Kv7.3(EEE) mutant channel,"channel open probability, activator, fitted PIP2 binding model",,"model 5, efficacy fixed to wild type",baseline: channel without bound PIP2,efficacy factor E3,0.36
CCCN(C)c1ccc2cc(C(=O)NS(=O)(=O)c3ccccc3-c3ccccc3)oc2c1,"estrogen receptor alpha, human",reporter gene,MCF7-MVLN,24 h,,IC50,> 20 µM
CC(=O)N[C@H](C(=O)N1C[C@H](O)C[C@H]1C(=O)NCc1ccc(-c2scnc2C)cc1)C(C)(C)SCCCCCCNC(=O)C[C@@H]1N=C(c2ccc(Cl)cc2)c2c(sc(C)c2C)-n2c(C)nnc21,plectin (human),TMT proteomics,HeLa,"1 µM, 24 h",baseline: DMSO,relative protein abundance,1.03
CC[S+]([O-])c1nc(-c2ccccc2)cc(C(F)(F)F)n1 (stereo not drawn),transportin-1/2,"FUS nuclear import, high content imaging",HeLa Kyoto reporter,"50 µM, 2 h",,cells with nuclear reporter,99.1% and 97.1%
Cc1ccc(N2CC(C(N)=O)CC2=O)cc1 (stereo not drawn),human THEMIS domain,"binding, affinity selection mass spectrometry",,,baseline: other proteins in batch,fold enrichment,1
C/C(=C\c1csc(C)n1)[C@@H]1C/C=C2\CCC[C@H](C)[C@H](O)[C@@H](C)C(=O)[C@](C)(CC=CCC(=O)OC2)[C@@H](O)CC(=O)O1,tubulin,"tubulin assembly, stimulator",cell-free,,,EC50,2.4 ± 0.1 µM
O=C(O)CCCOc1cccc(CNC(=O)C#Cc2cn(Cc3ccc(C(=O)O)cc3)c(=O)[nH]c2=O)c1,MMP-7,"inhibitor, FRET",,10 µM,,remaining MMP-7 activity,104 ± 2%
Cc1ccc2cc(C(=O)NS(=O)(=O)c3ccccc3-c3ccccc3)oc2c1,"estrogen receptor alpha, human",reporter gene,MCF7-MVLN,24 h,,IC50,> 11 µM
Oc1ccccc1-c1n[nH]cc1-c1ccnc2ccccc12,SKY1 (Candida albicans),"kinase binding, MIB/MS competition",Candida albicans lysate,10 µM,baseline: DMSO,log2 fold change,0.4
COc1cc(C)c2cc(C(=O)NS(=O)(=O)c3ccc(-c4ccccc4)cc3)oc2c1,"estrogen receptor alpha, human",reporter gene,MCF7-MVLN,24 h,,IC50,> 17.6 µM
COc1cccc(CNC(=O)C#Cc2cn(Cc3ccc(C(=O)O)cc3)c(=O)[nH]c2=O)c1,MMP-1,"inhibitor, colorimetric",,20 µM,,remaining MMP-1 activity,116 ± 29%
N#Cc1ccc(COc2cccc(C3CCN(Cc4nc5ccc(C(=O)O)cc5n4C[C@@H]4CCO4)CC3)n2)c(F)c1,sodium channel,,,,,IC50,7.6 µM
